Experimental data gathered from unrelated publications.
Several values in a cell are separate wells, animals, samples, runs or records. Numbers after ± are the reported error.

Sequences of proteins named here, by UniProt entry; tags and fusion partners are left off. Residues count along the entry.
UniProt Q16539, whole entry: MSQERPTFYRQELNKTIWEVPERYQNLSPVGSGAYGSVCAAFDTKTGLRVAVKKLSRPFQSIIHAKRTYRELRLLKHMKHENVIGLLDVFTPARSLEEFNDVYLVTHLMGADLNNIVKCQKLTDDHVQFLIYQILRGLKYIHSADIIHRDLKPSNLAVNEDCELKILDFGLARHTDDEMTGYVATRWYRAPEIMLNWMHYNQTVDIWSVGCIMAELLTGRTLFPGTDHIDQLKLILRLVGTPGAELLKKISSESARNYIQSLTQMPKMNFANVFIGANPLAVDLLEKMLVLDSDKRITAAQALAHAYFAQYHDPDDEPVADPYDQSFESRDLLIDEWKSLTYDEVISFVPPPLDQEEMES
UniProt O15151, 23-111 limits assumed: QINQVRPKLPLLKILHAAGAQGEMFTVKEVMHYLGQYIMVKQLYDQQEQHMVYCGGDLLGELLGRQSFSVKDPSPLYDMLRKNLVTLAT

| Structure (SMILES) | target or system | test | system | conditions | how to read | endpoint | value |
| --- | --- | --- | --- | --- | --- | --- | --- |
| CN(C)CCNC(=O)c1cccc2ccc(-c3ccc(-c4ccccc4)cc3)nc12 | MDA-MB-468 | cytotoxicity, MTT |  | 96 h |  | IC50 | 1100 ± 720 nM |
| CN1C(=O)CCc2cc(CNC(C)(C)[C@@H](O)c3ccccc3)ccc21 |  |  | CD-1 mouse, male, brain | subcutaneous, 10 mg/kg |  | half-life | 7.53 h |
| C=C(C)C(=O)Nc1ccc(-c2c(-c3ccc(Oc4nccc(C)n4)c(F)c3)c3c(N)ncnc3n2C)cc1 | EN | cell growth, CellTiter-Glo |  | 120 h |  | EC50 | 601 nM |
| CC(C)C[C@H](NC(=O)[C@H](CC(C)C)NC(=O)[C@H](CC(=O)O)NC(=O)[C@@H](N)CCCCN)C(=O)N[C@@H](CCC(=O)O)C(=O)N[C@@H](CCC(N)=O)C(=O)N[C@@H](CCCCN)C(=O)N[C@@H](CCCNC(=N)N)C(=O)N[C@@H](C)C(=O)N[C@@H](C)C(=O)N[C@H](C(=O)N[C@@H](CC(=O)O)C(=O)N[C@H](C(=O)N[C@@H](Cc1ccc(O)cc1)C(=O)N[C@@H](CS)C(=O)O)[C@@H](C)O)C(C)C | RAW264.7 preosteoclast | ROS production, CM-H2DCFDA fluorescence |  | 500 min |  | EC50 | 450 nM |
| Cc1ccc(S(=O)(=O)Nc2ccccc2C(=O)Nc2nc(-c3ccccc3)cs2)cc1 | GALT-deficient patient fibroblasts | no effect, ATP luminescence |  | up to 25 µM, 24 h, 0.05% galactose challenge |  | viability | no effect |
| N#Cc1c(-c2ccc(Cl)cc2Cl)n(-c2nc(-c3ccc(Cl)cc3)c3c(NC(=O)c4ccccc4)nnc-3[nH]2)[nH]c1=O | CCRF-CEM | NCI60 SRB |  | 10 µM |  | cell growth | 30.1% |
| CN(C)CCNC(=O)c1cc([N+](=O)[O-])cc2ccc(-c3ccccc3)nc12 | MDA-MB-468 | protection from CB1954/NRH toxicity |  | 3 h, added: 100 µM CB1954 plus 100 µM NRH |  | IC50 | 510 ± 430 nM |
| Cc1ccc(C#Cc2cc(-c3nn(-c4nc(C(=O)O)cs4)c(CC4CC4)c3Cc3ccc(S(N)(=O)=O)c(F)c3)ccc2F)s1 | HEK293T | lactate production |  | 1 h |  | IC50 | 400 nM |
| CCOC(=O)c1c(-c2ccc(Cl)cc2Cl)n(-c2nc(-c3ccc(Cl)cc3)c3c(NC(=O)c4ccccc4)nnc-3[nH]2)[nH]c1=O | COLO 205 | SRB |  | 10 µM | relative to: untreated | cell growth | -62.3% |
| CC(C)C[C@H](NC(=O)[C@@H](NC(=O)[C@H](CC(C)C)NC(=O)[C@H](CS)NC(=O)CNS(=O)(=O)c1cccc2c(N(C)C)cccc12)C(C)C)C(=O)O | geranylgeranyltransferase type-I (Rattus norvegicus, UniProt P53610+Q04631) | substrate, fluorescence |  | 30 °C, added: SmgGDS-558 5 µM and GGPP 10 µM |  | Km | 2 ± 1.2 µM |
| CC(C)C[C@H](NC(=O)[C@H](C)NC(=O)[C@H](CCCNC(=N)N)NC(=O)[C@H](CCCNC(=N)N)NC(=O)[C@H](CCCNC(=N)N)NC(=O)[C@H](C)NC(=O)[C@H](CC(C)C)NC(=O)[C@H](CCCNC(=N)N)NC(=O)[C@H](CO)NC(=O)[C@H](CCCCN)NC(=O)[C@H](CO)NC(=O)Cn1cc(COC(=O)[C@]2(C)C=C(C(=O)OC(C)(C)C)C(=O)CC2)nn1)C(=O)O | Mitogen-activated protein kinase 14 (MAPK14, Homo sapiens, UniProt Q16539) | enzyme activity, inhibitor, D-SENSOR kinase |  | 0.03048 µM, unit not given | relative to: untreated | remaining activity | 1.04 and 0.874 and 0.915 |
| CCN(CC)CCCC(C)Nc1cc(-c2ccccc2)nc2cc(OC)ccc12 (stereo not shown) | MDA-MB-468 | cytotoxicity, MTT |  | 96 h |  | IC50 | 920 ± 64 nM |
| COc1ccc(C2=N[C@@H](c3cccc(Cl)c3)[C@@H](c3ccc(Cl)cc3)N2C(=O)N2CCNC(=O)C2)c(OC(C)C)c1 (relative stereo) | Protein Mdm4 (MDM4, Homo sapiens, UniProt O15151) | NMR HSQC titration |  | pH 6.5, 298 K, global fit |  | Kd | 1700 ± 1100 nM |
| Cc1c(Cn2c(C)nc3c(C(=O)O)cc(N4CCOCC4)cc32)cccc1C(F)(F)F | PC-3 | cell growth, WST-8 |  | 3 days |  | EC50 | 9080 nM |
| CC/C=C\C/C=C\CCC/C=C/C=C/C=C\CCCC(=O)O | NALM-6 | flow cytometry |  | 37.5 µM, 24 h |  | S phase cells | 37.1% |
| CC(C)CC(NC(=O)C(Cc1ccccc1)NC(=O)c1cnc(C(=O)NC(Cc2ccccc2)C(=O)NC(CC(C)C)B(O)O)cn1)B(O)O (stereo not shown) | MM.1R | cell viability, CellTiter-Glo |  | 48 h |  | IC50 | 4.5 nM |
